Earlier results as cited in several papers.
Each line is one published result; not all experiments were run side by side. ± gives the spread as reported.
UniProt P23975, sequence (whole entry, looked up): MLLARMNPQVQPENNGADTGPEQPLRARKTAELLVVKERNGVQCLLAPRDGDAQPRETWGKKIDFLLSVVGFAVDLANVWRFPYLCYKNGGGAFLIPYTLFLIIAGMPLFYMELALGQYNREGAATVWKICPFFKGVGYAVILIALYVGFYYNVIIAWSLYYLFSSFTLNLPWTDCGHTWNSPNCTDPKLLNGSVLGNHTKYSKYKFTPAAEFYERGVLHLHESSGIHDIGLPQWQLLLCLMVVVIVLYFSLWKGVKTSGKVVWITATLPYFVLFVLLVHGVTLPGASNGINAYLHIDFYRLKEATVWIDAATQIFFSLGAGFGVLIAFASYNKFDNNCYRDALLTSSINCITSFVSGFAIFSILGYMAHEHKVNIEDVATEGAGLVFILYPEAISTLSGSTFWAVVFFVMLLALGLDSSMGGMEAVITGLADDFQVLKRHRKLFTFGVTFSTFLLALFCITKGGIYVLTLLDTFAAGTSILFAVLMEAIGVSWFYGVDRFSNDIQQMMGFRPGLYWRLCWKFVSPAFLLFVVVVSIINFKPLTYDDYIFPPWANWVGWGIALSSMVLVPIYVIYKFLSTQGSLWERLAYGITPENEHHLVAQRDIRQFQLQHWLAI
UniProt P25021, sequence (whole entry, looked up): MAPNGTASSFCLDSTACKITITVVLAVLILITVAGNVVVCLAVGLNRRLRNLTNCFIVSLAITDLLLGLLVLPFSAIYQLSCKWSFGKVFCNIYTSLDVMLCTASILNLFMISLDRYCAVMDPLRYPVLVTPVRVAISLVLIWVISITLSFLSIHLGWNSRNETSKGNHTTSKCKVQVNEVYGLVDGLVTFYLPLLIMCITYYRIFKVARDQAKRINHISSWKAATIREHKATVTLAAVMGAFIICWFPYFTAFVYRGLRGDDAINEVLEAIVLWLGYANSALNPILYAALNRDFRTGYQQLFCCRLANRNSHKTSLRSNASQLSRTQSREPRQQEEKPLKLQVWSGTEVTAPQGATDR

The EC50 of `NC(=O)c1ncn([C@@H]2O[C@H](CO)[C@@H](O)[C@H]2O)n1` is reported as 5200 nM (measles virus; viral replication, MTT; Edmonston).
With `CCCCCCCCC(F)(P(=O)(O)O)P(=O)(O)O` the EC50 was > 10000 nM (Trypanosoma cruzi; growth; amastigotes).
`C=CCN(CC=C)CCc1c[nH]c2ccc(F)cc12` has a Ki of 1820 nM (SLC6A2 (Homo sapiens, UniProt P23975)).
For `NC(=O)NO`, the EC50 was < 500000 nM (human cytomegalovirus; viral replication, virus titre reduction).
With `CC(=Nc1ccccc1N)c1c(C)cc(=O)n(O)c1O` the EC50 was 690 nM (hepatitis B virus; viral replication).
`CCCCCCCSCC(P(=O)(O)O)P(=O)(O)O` gave an EC50 of > 20000 nM (Trypanosoma cruzi; growth; amastigotes).
The EC50 of `N#C/N=C1\SCCN1Cc1ccc(Cl)nc1` is reported as 1.5 mg/kg dry soil (Folsomia candida; reproduction; LUFA soil, nominal).
The EC50 of `CCCCCCCNCC(P(=O)(O)O)P(=O)(O)O` is reported as 10000 nM (Trypanosoma cruzi; growth; amastigotes).
`C=C1CC[C@H](O)C/C1=C/C=C1\CCC[C@]2(C)[C@@H]([C@H](C)/C=C/[C@H](C)C(C)C)CC[C@@H]12` has an EC50 of 3800 nM (hepatitis C virus; viral replication; HCV genotype 1b full-length replicon cells, genotype 1b).
`CCCCCCCCCCSCC(P(=O)(O)O)P(=O)(O)O` gave an EC50 of > 20000 nM (Trypanosoma cruzi; growth; amastigotes).
`NC[C@H](NC(=O)c1ccc(-c2ccc(C(F)(F)F)cc2)[nH]1)c1nc(CO)cs1` has an EC50 of < 200 nM (HIV-1 HXB2; viral replication).
`CC(C)(C)NC(=O)N[C@H](C(=O)N1C[C@H]2[C@@H]([C@H]1C(=O)NC(CC1CCC1)C(=O)C(N)=O)C2(C)C)C(C)(C)C` (stereo partly drawn) has an EC50 of 210 to 570 nM (hepatitis C virus; viral replication; genotype 1b replicon).
For `C=CCN(CC=C)CCc1c[nH]c2ccccc12`, the Ki was > 10000 nM (HRH2 (Homo sapiens, UniProt P25021); binding; cloned human receptor; with: [3H]tiotidine).
For `CC(C)[C@H](N)C(=O)O[C@@H]1[C@@H](CO)O[C@@H](n2ccc(N)nc2=O)[C@]1(C)O`, the EC50 was 1230 ± 520 nM (hepatitis C virus; viral replication; genotype 1b replicon).
With `Cc1cc(Nc2ccc(S(F)(F)(F)(F)F)cc2)n2nc(C(C)(F)F)nc2n1` the EC50 was 4.3 to 7.8 nM (Plasmodium falciparum; parasite growth; 3D7).

A few entries again:
`CCCCCCCCCCSCC(P(=O)(O)O)P(=O)(O)O` gave an EC50 of > 20000 nM (Trypanosoma cruzi; growth; amastigotes).
